Published values collected from several papers.
Parts stem from different laboratories: compare values within a part only. Positions count from the first letter of the parent shown.
UniProt P45983, sequence (whole entry, looked up): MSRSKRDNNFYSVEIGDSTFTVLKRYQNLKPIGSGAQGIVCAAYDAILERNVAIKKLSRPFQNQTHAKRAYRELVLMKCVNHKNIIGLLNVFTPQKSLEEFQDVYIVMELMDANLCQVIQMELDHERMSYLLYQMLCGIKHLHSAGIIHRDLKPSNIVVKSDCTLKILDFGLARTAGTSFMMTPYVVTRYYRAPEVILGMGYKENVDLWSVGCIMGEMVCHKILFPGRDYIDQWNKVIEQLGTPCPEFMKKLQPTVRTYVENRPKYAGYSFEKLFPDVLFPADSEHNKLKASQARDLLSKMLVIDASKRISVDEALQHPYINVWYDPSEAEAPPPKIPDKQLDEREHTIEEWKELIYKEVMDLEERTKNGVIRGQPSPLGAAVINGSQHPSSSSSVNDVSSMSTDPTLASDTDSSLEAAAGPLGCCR

Block 1
Target: Muscarinic acetylcholine receptor M3 (CHRM3, Homo sapiens, UniProt P20309)
UniProt P20309, sequence (whole entry, looked up): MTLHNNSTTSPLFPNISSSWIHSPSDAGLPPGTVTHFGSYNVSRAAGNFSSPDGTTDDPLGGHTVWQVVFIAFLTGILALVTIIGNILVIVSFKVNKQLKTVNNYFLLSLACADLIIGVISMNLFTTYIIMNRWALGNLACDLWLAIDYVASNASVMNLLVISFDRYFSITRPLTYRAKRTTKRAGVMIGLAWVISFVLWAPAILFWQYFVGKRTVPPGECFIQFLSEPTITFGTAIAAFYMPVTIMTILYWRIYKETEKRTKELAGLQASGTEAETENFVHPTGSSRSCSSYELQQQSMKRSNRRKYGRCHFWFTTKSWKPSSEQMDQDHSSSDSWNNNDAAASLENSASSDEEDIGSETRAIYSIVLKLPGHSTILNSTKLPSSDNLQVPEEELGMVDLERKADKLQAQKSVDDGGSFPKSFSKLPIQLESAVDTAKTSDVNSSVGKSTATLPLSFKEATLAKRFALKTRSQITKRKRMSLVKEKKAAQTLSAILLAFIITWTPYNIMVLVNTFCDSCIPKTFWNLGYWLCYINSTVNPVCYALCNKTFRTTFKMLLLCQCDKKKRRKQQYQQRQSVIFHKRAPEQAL
Effect on: binding
Method: radioligand binding
Tested at: 10 µM
Compound	inhibition
COc1cccc(CNC(=O)c2nc3scc(COCc4ccc(C(=O)O)cc4)c3c(=O)[nH]2)c1	-13%
Cc1nc(Cc2cccc(C(F)(F)F)c2)sc1-c1ccc(C(N)=O)nc1	-11.9%
CC1=C(C#N)C(c2ccc3c(c2)c(NC(=O)c2ccccc2C)nn3C)C(C#N)=C(C)N1	9.49%
O=C([C@H]1C[C@H](O)CN1c1ccc(Cl)cc1)N1CC2COCC(C1)N2Cc1ccc(Cl)cc1	24.1%
Nc1c(C(=O)NCc2ccc(C(=O)NCCCC3CCCCC3)cc2)cnn1-c1ccccc1	25.2%
CCOCCn1cc(C(=O)Nc2ccc(-n3nc(-c4cccnc4)cc3C(F)(F)F)cn2)ccc1=O	10.2%
CCOC(=O)c1cc2cc(-c3cc(C(=O)NCc4ccc(C(=O)O)cc4)nn3C)ccc2[nH]1	4.89%
Cc1c(N2CCCC2)nc2ccc(Br)cc2c1C(=O)NC[C@H](CCC(=O)O)c1ccccc1Cl	-0.57%
CCCOc1ccc([C@H]2[C@H](C(=O)O)[C@@H](c3ccc4c(c3)OCO4)CN2CC(=O)Nc2c(CC)cccc2CC)cc1	-5.06%
Cc1nccc(COC(=O)N2C[C@@H]3[C@@H](CNC(=O)c4ccc5[nH]nnc5c4)[C@@H]3C2)n1	-15.3%
O=C(Nc1cccnn1)N1CC(CC=Cc2cncc(Oc3ccc(C(F)(F)F)cn3)n2)C1	0.26%
COc1cc(-c2cn(C3CCc4ccccc4N(CC(F)(F)F)C3=O)nn2)ccc1-n1ccc(C)n1 (centres unmarked)	-6.94%
O=C(Nc1cccnn1)N1CCC(=Cc2cccc(Oc3ccc(C(F)(F)F)cn3)c2)CC1	27.5%
CN1C(=O)[C@@H](N2CCc3cn(Cc4ccccc4)nc3C2=O)COc2ccccc21	0.09%

Block 2
Target: CCND3, cyclin fold, Cln2 fusion (human)
Method: yeast growth competition, sequencing
Matrix: yeast
Notes: weak parent motif
Reference: not given
Direction: higher = stronger binding
Starting sequence: viral docking peptide; TSVRRALFTGGSD
Variant	normalised enrichment score
TSVRRALFMGGSD [T9M]	0.315
TSVRRALFTGGCD [S12C]	-0.0463
TSVRIALFTGGSD [R5I]	0.0927
TSVRRALHTGGSD [F8H]	0.503
TSVRHALFTGGSD [R5H]	0.407
TSVRRALFTGTSD [G11T]	0.203
TSVRRALFTGGKD [S12K]	-0.555
TSLRRALFTGGSD [V3L]	-0.298

Mixed results
SMILES	tested on	test	system	conditions	how to read	endpoint	result
CC(C)[N+](C)(CCC(C(N)=O)(c1ccccc1)c1ccccc1)C(C)C	mouse MPNST tumor cells	high-content nuclear imaging, item: cell number		10 µM, 12 h, mean of 2 replicates	reference: plate mean, higher = more cells	nuclei count	2.33 z-score
CCn1cnc2c(Nc3cccc(Cl)c3)nc(N[C@H]3CCCC[C@H]3N)nc21	MAPK8 (Homo sapiens, UniProt P45983)	enzyme activity, inhibitor		0.5 µM	reference: control	remaining activity	97.6%
COC(=O)[C@@H](N)CCCNC(=N)N[N+](=O)[O-]	mouse MPNST tumor cells	high-content nuclear imaging, item: cell number		10 µM, 12 h, mean of 2 replicates	reference: plate mean, higher = more cells	nuclei count	0.401 z-score
COc1cccc([C@@]2(O)CCCC[C@@H]2CN(C)C)c1	Huh-7			10 µM, 24 h		viability	97.8%
O=C1NC(=O)N(c2ccc(Br)cc2)C(=O)C1=Cc1ccc(-c2ccccc2C(=O)O)o1		AlphaScreen signal, AlphaScreen counter screen	His6 peptide without bromodomain	50 µM, assay interference check		inhibition	-0.45%
CNC(C)(C)Cc1ccccc1	Huh-7			10 µM, 24 h		viability	98.8%
c1ccc2c(c1)CNC(c1ccc3c(c1)OCO3)c1cccn1-2 (centres unmarked)			human, microsomes or S9	2 µM, 0.5 h		remaining compound	32.3%

For quick reference, copied from above (block 2):
Variant	normalised enrichment score
TSVRIALFTGGSD [R5I]	0.0927
TSVRRALHTGGSD [F8H]	0.503
TSVRHALFTGGSD [R5H]	0.407
TSVRRALFTGTSD [G11T]	0.203
